Measured values of several laboratories.
Protocols differ between the studies behind these lines. Values joined by “and” are separate records of one study, mostly repeats; a detail may differ. ± marks the error that the study gave.
UniProt P11712, sequence (whole entry, looked up): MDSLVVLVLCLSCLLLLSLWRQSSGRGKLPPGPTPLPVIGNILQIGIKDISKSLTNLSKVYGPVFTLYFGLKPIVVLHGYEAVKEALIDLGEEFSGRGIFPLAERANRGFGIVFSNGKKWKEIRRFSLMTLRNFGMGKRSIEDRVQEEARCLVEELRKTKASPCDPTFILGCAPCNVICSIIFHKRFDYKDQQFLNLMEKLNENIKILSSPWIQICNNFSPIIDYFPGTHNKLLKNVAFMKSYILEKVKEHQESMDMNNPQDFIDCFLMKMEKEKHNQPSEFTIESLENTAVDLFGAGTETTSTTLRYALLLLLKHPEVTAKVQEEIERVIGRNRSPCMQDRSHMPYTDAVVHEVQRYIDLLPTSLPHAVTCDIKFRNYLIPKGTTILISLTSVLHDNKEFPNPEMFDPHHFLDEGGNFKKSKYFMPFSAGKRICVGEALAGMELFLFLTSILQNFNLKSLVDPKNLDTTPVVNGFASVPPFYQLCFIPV
UniProt O75469, sequence (whole entry, looked up): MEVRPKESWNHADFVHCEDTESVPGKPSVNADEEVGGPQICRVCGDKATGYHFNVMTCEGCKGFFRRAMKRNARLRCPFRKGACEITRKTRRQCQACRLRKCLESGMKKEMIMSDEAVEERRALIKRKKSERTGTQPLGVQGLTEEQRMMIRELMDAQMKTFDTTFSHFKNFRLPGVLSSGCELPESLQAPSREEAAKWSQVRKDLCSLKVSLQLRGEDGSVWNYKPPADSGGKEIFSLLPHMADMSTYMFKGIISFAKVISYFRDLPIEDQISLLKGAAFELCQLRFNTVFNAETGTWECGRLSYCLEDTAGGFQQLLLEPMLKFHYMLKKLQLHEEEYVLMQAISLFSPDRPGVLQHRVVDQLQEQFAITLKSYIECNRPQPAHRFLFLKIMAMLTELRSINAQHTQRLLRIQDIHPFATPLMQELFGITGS
UniProt P10632, sequence (whole entry, looked up): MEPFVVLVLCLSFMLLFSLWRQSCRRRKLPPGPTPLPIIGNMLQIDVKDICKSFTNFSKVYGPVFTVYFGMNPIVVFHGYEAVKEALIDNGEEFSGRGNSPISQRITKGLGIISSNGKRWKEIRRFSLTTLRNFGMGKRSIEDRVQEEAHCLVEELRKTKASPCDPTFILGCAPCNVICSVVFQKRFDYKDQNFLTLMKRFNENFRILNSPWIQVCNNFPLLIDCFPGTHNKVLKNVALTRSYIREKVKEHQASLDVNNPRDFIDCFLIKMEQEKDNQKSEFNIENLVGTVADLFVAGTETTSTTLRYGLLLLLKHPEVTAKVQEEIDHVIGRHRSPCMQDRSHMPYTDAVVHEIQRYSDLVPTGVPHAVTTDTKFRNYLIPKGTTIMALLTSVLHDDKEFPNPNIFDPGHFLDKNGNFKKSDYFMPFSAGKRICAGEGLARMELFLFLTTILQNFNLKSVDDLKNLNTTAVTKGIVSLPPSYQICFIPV

SMILES | target or system | test | system | conditions | scale | endpoint | result
O=C1NC2(CC2)COc2ncc(F)cc2[C@H]2COCCN2c2ccn3ncc1c3n2 | Salmonella typhimurium | Ames test | TA98 | 500 µg/plate, 48 h, with: without S9 | – | revertant colonies | 10 ± 1 revertants/plate
N#C[C@@H]1CC(F)(F)CN1C(=O)CNC(=O)c1ccnc2c(NC(=O)[C@H](CCCCNC(=O)CCOCCOCCOCCOCCOCCOCCNC(=O)CN3CCN(CC(=O)[O-])CCN(CC(=O)[O-])CCN(CC(=O)[O-])CC3)NC(=O)CCCc3ccc(I)cc3)cccc12.[177Lu+3] | U-87 MG tumour model | – | host not given, muscle | 72 h, tumour-bearing | – | tracer uptake | 0.09 %ID/g
N=C(N)NCCC[C@@H]1NC(=O)[C@H](CCCNC(=N)N)NC(=O)[C@@H](CCCNC(=N)N)NC(=O)[C@@H](CCCNC(=N)N)NC(=O)[C@@H](C(c2ccccc2)c2ccccc2)NC(=O)[C@H](Cc2c[nH]c3ccccc23)NC(=O)[C@@H](C(c2ccccc2)c2ccccc2)NC1=O | HEKa | cell growth or viability, MTS | – | 200 µg/mL, 24 h | – | viability | 64 to 69%
C=CC(=O)Nc1cc(Nc2nccc(-c3cn(C)c4ccccc34)n2)c(OCC(F)(F)F)nc1N(C)CCNC | Cytochrome P450 2C8 (CYP2C8, Homo sapiens, UniProt P10632) | substrate | – | 3 µM, 60 min, 2C8 isoform, liver abundance-normalized | – | contribution to metabolite formation | 6.46%
CCN(CC)CC#CCNc1ccnc2cc(Cl)ccc12 | Salmonella typhimurium | mini-Ames test | TA97a | 500.0 µg/well, without S9 | – | revertants | 0 revertants/well
CC(C)Cc1ccc(C(C)C(=O)N[C@@H](CCCCNC(=O)CCOCCOCCOCCOCCOCCOCCNC(=O)CN2CCN(CC(=O)[O-])CCN(CC(=O)[O-])CCN(CC(=O)[O-])CC2)C(=O)Nc2cccc3c(C(=O)NCC(=O)N4CC(F)(F)C[C@H]4C#N)ccnc23)cc1.[177Lu+3] (some centres unmarked) | U-87 MG tumour model | – | host not given, tumour | 1 h, tumour-bearing | – | tracer uptake | 22 %ID/g
N#Cc1ccnc(N2C(=O)CC[C@H]2C(=O)N(c2cncc(F)c2)[C@H](C(=O)NC2CC(F)(F)C2)c2ccccc2Cl)c1 | Nuclear receptor subfamily 1 group I member 2 (NR1I2, Homo sapiens, UniProt O75469) | reporter gene, agonist | – | 10 µM | baseline: rifampicin | activation | 21%
N#C[C@@H]1CC(F)(F)CN1C(=O)CNC(=O)c1ccnc2c(NC(=O)CCOCCOCCOCCOCCOCCOCCNC(=O)[C@H](CCCCNC(=O)CN3CCN(CC(=O)[O-])CCN(CC(=O)[O-])CCN(CC(=O)[O-])CC3)NC(=O)CCCc3ccc(I)cc3)cccc12.[177Lu+3] | U-87 MG tumour model | – | host not given, liver | 4 h, tumour-bearing | – | tracer uptake | 1.28 %ID/g
CNC(=O)C1CCCN(C(=O)C2CC3CCC2N3C(=O)[C@@H]2C[C@@H](O)CN2C(=O)NCc2cccc(Cl)c2F)C1 (mixture of isomers) | Cytochrome P450 2C9 (CYP2C9, Homo sapiens, UniProt P11712) | preincubation without NADPH | human | 16.7 µM | baseline: negative control | remaining activity | 102% and 97.6% and 104%
COc1cccc(OC)c1-c1cc(C(=O)NC2(C(=O)O)C3CC4CC(C3)CC2C4)nn1-c1ccc(C(=O)N(C)CCCN(C)C(=O)[C@H](CCCCNC(=O)[C@H](CC(C)C)NC(=O)C2OC2C(=O)O)NC(=O)CN2CCN(CC(=O)[O-])CCN(CC(=O)[O-])CCN(CC(=O)[O-])CC2)cc1C(C)C.[177Lu+3] (mixture of isomers) | HT-29 tumour model | – | host not given, pancreas | 4 h, tumour-bearing | – | tracer uptake | 0.47 %ID/g
COc1ccc(Cn2c(=O)n(O)c(=O)c3ccccc32)cc1 | MDCK | – | Caco-2 | 10 µM | – | Papp B→A | 2.2 ×10⁻⁶ cm/s
O=C1C2CC3CC1CC(C(=O)N1CCN(c4ccc([N+](=O)[O-])c5ncccc45)CC1)(C3)C2 | Salmonella typhimurium | Ames test | TA1535 | 0.31 µg/well, with S9 | – | mean revertant colonies | 3 colonies/well
CC(C)OCCOCc1ccc(OCC(O)CN(N=O)C(C)C)cc1 (centres unmarked) | Salmonella typhimurium | Ames test | TA1537 | 15.8 µg/plate, 30 % rat S9 | baseline: solvent control | revertant fold increase | 1.3 fold
CC[C@H](C)[C@H](NC(=O)C[C@H](NC(=O)CN1CCN2CCN(CC1)CC(=O)[O][Al]([18F])[O]C(=O)C2)C(=O)O)C(=O)N[C@H]1CCc2cccc3c2N(C1=O)[C@H](C(=O)NCc1cn[nH]n1)C3 | MC-38 tumour model | – | host not given, tumour | 30 min, tumour-bearing | – | tracer uptake | 0.86 %ID/g
C=C(NC(=O)c1csc(-c2nc3c(cc2O)-c2nc(cs2)C(=O)NC(C(C)O)C(=O)NC(=C(C)OC)c2nc(cs2)C(=O)NC2c4nc(cs4)C(=O)NC(COC(=O)c4c5c6c(cccc6n4O)COC(=O)C(OC4CC(C)(O)C(N(C)C)C(C)O4)C2OC5)c2nc-3cs2)n1)C(N)=O (centres unmarked) | – | – | ICR mice, Streptococcus pneumoniae ATCC 49169 infected, immunocompromised, blood | intravenous, 4 mg/kg/day once daily | – | Tmax | 4.8 min
CC[C@H](C)[C@H](NC(=O)[C@H](Cc1ccccc1)NC(=O)[C@H](CCC(=O)O)NC(=O)[C@H](CCCCN)NC(=O)[C@H](C)NC(=O)[C@H](C)NC(=O)[C@H](CCC(N)=O)NC(=O)CNC(=O)[C@H](CCC(=O)O)NC(=O)[C@H](CC(C)C)NC(=O)[C@H](Cc1ccc(O)cc1)NC(=O)[C@H](CO)NC(=O)[C@H](CO)NC(=O)[C@@H](NC(=O)[C@H](CC(=O)O)NC(=O)[C@H](CO)NC(=O)[C@@H](NC(=O)[C@H](Cc1ccccc1)NC(=O)[C@@H](NC(=O)CNC(=O)[C@H](CCC(=O)O)NC(=O)[C@H](C)NC(=O)[C@@H](N)Cc1c[nH]cn1)[C@@H](C)O)[C@@H](C)O)C(C)C)C(=O)N[C@@H](C)C(=O)N[C@@H](Cc1c[nH]c2ccccc12)C(=O)N[C@@H](CC(C)C)C(=O)N[C@H](C(=O)N[C@@H](CCCCN)C(=O)NCC(=O)N[C@@H](CCCN=C(N)N)C(=O)NCC(=O)O)C(C)C | DPP-4 (recombinant) | substrate, LC-MS | – | 500 µM, 24 h | – | remaining peptide | ~65%
O=S(=O)(NCc1ccncc1)c1ccc(C2CCCCC2)cc1 | MDCK | – | Caco-2 | 5 µM, 90 min, pH 7.4 | – | efflux ratio | 0.75

A few entries again:
SMILES | target or system | test | system | conditions | scale | endpoint | result
N#C[C@@H]1CC(F)(F)CN1C(=O)CNC(=O)c1ccnc2c(NC(=O)CCOCCOCCOCCOCCOCCOCCNC(=O)[C@H](CCCCNC(=O)CN3CCN(CC(=O)[O-])CCN(CC(=O)[O-])CCN(CC(=O)[O-])CC3)NC(=O)CCCc3ccc(I)cc3)cccc12.[177Lu+3] | U-87 MG tumour model | – | host not given, liver | 4 h, tumour-bearing | – | tracer uptake | 1.28 %ID/g
